Measured values gathered from unrelated publications.
Every numbered part comes from another study and shows a few of its results, in no order. Positions count from the first letter of the parent shown.

Set 1 — technique: protein binding microarray; form: double-stranded DNA, one strand shown; sample: in vitro; concentration: not given; relative to: not given; direction: higher = stronger binding
Target: Histone acetyltransferase KAT6A, winged helix 2, GST fusion (KAT6A, Homo sapiens, UniProt Q92794, residues 85-181)
Setting: 8-mer, flanks averaged, mean of 2 arrays, mostly near background
Residues (chain): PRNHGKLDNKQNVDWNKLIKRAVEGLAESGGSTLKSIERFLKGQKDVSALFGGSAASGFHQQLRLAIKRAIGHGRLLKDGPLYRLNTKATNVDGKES
Oligonucleotide | E-score
AATGCTAC | 0.209
AGAGCCTG | 0.0582
GCTATACA | -0.0327
ACACATTC | -0.172
CTGCTCTA | 0.108
AGACAGAT | 0.0323
ACTGATTA | -0.0401
GGCATATA | 0.0972
CATCTAGA | 0.0293
GATAATAA | -0.0284
CTCGCAGC | 0.159
GGGGCACA | 0.12
GTCTAGGA | -0.13
CCAATCAC | -0.084
AGCGCACA | 0.00212
AAGAAATC | 0.0086
CATCAGAA | 0.0586
CAACCGAA | 0.141
AGTTCTAC | -0.183

Set 2 — target: CCNF, cyclin fold, Cln2 fusion (human); technique: yeast growth competition, sequencing; sample: yeast; setting: strong parent motif; relative to: not given; direction: higher = stronger binding
Parent: ORC1 docking peptide (human); PRARKRLELGNLG
Variant | normalised enrichment score
L7Q | 0.799
N11W | 3.89
R4T | 1.49
L9I | 2.08
G13N | 3.31
K5V | 0.793
G10R | 1.81
R4W | 1.17
L7T | 0.775
K5A L7A | 0.841
L9C | 1.78
R6C | 1.32
A3K | 1.9
N11P | 6
L7P | -0.274
L7E | 0.979
K5L | 1.23
R6T | 0.773

Set 3 — technique: RNA Bind-n-Seq; form: RNA; sample: in vitro; concentration: not given; relative to: input RNA pool; direction: higher = stronger binding
Target: RING finger protein unkempt homolog, zinc fingers 1-6, GST-SBP tag (UNK, Homo sapiens, UniProt Q9C0B0, residues 30-357)
Setting: RNA with constant flanks, human and mouse sites, ends assumed
Residues (chain): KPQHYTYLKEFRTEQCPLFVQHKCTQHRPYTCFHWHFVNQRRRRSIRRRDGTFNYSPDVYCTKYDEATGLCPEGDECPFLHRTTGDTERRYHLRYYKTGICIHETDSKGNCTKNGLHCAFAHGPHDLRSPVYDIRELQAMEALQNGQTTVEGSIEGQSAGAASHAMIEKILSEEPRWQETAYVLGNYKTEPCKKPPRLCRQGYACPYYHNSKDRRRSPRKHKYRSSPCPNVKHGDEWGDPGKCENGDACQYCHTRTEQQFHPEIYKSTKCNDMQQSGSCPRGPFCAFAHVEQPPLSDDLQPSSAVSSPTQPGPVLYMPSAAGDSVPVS
Oligonucleotide | bound/input enrichment [ratio]
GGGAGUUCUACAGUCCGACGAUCGUCUACCUUAACCUGGUGCUGGACUAUGUUCCGGAGACAGUGUACAGAGUCGCCAGACACUAUAGUCGAGCCAAGCAGACACUCCCUGUGAUCUAUGUCAAGUUGUAUAUGUAUCAGCUGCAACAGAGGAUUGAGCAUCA | 0.0725
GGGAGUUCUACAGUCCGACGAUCAAGGAAGGGGUGGGCGUGAGAGCACUGGUGUUCGUACACUCAGCAGGAAGCUGCUGUCUGGCUCUGCUGAUCCAGAACGGCACUGCCUCAAGAGGGUGUCUGUGUUGCCUCGGUGGCCCCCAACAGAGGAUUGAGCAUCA | 0.0962
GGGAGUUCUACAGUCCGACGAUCAUCUAAACUUAGAUGGAGUUGGUCAAAUGAGGGAACAUCUGGGUUAUGCCUUUUUUAAAGUAGUUUUCUUUAGGAACUGUCAGCAUGUUGUUGUUGAAGUGUGGAGUUGUAACUCUGCGUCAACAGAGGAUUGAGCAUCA | 0.387
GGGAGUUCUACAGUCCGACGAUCGCAGGAGUCCGUCAGCAAGAAGGGGAGAGUCGGCUCAAUCUGGUGCAGAGAAAUGUUAAUGUCUUCAAAUUCAUUAUUCCUCAGAUCGUCAAGUACAGUCCUGAUUGCAUCAUAAUUGUGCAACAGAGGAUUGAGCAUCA | 0.226
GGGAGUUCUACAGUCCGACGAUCUAAGAAGAAAAACAAGUUAUAGCACUUUCAAUUUUUUUUUUUUUUUUAAAAAAAGGUUUAUAGCUUUUUCUUUUCCCAUGUCACAAUGUCCACUUCCUAAGAAGGGUUUAAAAUACUAUGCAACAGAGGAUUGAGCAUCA | 0.467
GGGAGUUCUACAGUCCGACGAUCCCACCAUUGCCUCCUGAGGAACCACCAGAGGGUCCAGCAUUGCCCACUGAGCAGUCAGCAUUAACAGCUGAAAAUACUUGGCCUACAGAGGUGCCAUCAUCACCAUCUGAAGAGUCUGUACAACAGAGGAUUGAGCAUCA | 0.171
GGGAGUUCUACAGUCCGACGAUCCGUCAGAAGAUACAGAGGGAAUUAAUGAAGCUGGAACAAGAAAACAUGGAGAAGAGAGAAGAAAUUAUCAUUAAAAAGGAGGUUUCACCAGAAGUGGUUAGAUCAAAAUUGUCCCCGUCACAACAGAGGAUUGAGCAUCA | 0.662
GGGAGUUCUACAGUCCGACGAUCGAUCAAGCCAGAUCAGCAUUCUCUAACUUGUUUGGUGGGGAACCAUUGUCAUACACCCGGUUUAGCCUUGCUCGGCAAGUAGAUGGAGAUAACAGUCAUGUGGAGAUGAAACUGGCUGCACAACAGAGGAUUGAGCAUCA | 0.979

Set 4 — technique: EMSA with sequencing; form: double-stranded DNA, one strand shown; sample: in vitro; concentration: 10 and 20 nM; relative to: negative control set to 0; direction: higher = stronger binding
Target: Hepatocyte nuclear factor 3-alpha (Foxa1, Mus musculus, UniProt P35582, residues 1-468, full length assumed)
Setting: whole designed probe, mean of two concentrations, ends assumed
Construct (chain): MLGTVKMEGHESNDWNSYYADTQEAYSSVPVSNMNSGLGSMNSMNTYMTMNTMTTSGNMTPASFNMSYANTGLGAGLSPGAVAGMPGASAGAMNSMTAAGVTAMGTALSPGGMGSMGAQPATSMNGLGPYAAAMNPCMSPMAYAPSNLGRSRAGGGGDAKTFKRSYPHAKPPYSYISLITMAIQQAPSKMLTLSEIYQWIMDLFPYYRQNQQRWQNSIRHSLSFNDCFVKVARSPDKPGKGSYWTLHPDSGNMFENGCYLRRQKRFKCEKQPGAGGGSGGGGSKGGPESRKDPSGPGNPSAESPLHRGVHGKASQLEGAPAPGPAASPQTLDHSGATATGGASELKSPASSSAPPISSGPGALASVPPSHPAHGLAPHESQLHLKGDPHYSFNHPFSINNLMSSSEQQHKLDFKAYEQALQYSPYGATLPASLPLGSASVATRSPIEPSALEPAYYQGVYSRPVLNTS
Oligonucleotide | normalised bound fraction
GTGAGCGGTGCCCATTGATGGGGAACGGAAGTCTGCAATGCTTTGAACAGCAGGGTGTGGGAGGAAGTGTTGGCCCTACTCACCCTGCCTGACCTCCCTGGGCTGTGACGTCAGAGCTCAGATTACATAGCTGAGGGACTGGGAATGCTGGAGTGGAGGAAGGAGGTGATGAATGATTCAGGAGGACACACAACATCCCTGCTTTTCTTTCCTGCTGGCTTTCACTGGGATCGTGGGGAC | -0.0478 ratio
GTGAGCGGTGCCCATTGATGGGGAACCAATAAAACATTAAAAGATGCTGTTTCCCTATTTATGAAAGTGCTTTAAGTTTCTTAGTGTTGTGAAGGGATTTTTTTTTTTTTCGGACAAAGTAAACAGGGTTCTCAAGATCCATTTCTAAAATTTTATTTCAAGGAGGAGATGAGAAATGTATGCTTAAAGAAACTGCTGGACACTATTAAAACTGGGATGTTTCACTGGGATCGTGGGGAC | 0.24 ratio
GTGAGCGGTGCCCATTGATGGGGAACATTTATAAAAAGAGGAAATTATTCATGCCATCAGCACTCCCCATCAATAACAGGAGGAAACCTAACTATCTCATTACCCCATCACACTGTGTGCAATCTGAACTGCCCGTTGTTGACAATAAATATTTGATAAGTGAGGAAACAGGAAGGATAAACCAAGGGTGCAGAGTGGAGCTGCACAGTTGCCAGGAGATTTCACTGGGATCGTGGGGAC | 0.115 ratio
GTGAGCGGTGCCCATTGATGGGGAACTACCAACCAAAGATTTTGAAAAGAGAGTCGGTCCTTGATGATTCAATTTCAAGGCCAAACCATCACAGGGACCACTTTGGAAGTAATATTAAGTAATCTAGCATCCTTTTAGTTAATGCTAATGGTTAGCTTGGTTTTCTGTTATGTATAGTCAAAAGGATTCTACATGATTAAGCCAGAAGTATCTATTTAGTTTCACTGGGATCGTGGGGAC | -0.044 ratio
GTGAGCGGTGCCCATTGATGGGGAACGCTCAGCTTCCTCATCTAAGGAGGCAATAAAACCTTCCACTATGTGGTCAGGATTACAAGATTTAAAGTATATGAAATCTGTAAGGCCCTTATGCAATTTAAGATGTTATTATCCTACTTTGCAGATGAATGAAAAATATTACTGAATCAGAGAAACTAAGGTTCAGAGACATAAAGTCACTTGCTGACGTTTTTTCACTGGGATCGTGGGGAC | -0.0712 ratio

For quick reference, copied from above (set 2):
Variant | normalised enrichment score
A3K | 1.9
L7Q | 0.799
R6T | 0.773
N11W | 3.89
